Results collected from several papers.
Each line is one published result; not all experiments were run side by side.
Organism: Acinetobacter baumannii

CC[C@H](C)[C@H](NC(=O)CNC(=O)[C@H](CC(=O)O)NC(=O)[C@H](CCCNC(=N)N)NC(=O)[C@@H](NC(=O)[C@H](CC(N)=O)NC(=O)[C@H](CCC(=O)O)NC(=O)CNC(=O)[C@@H](NC(=O)[C@H](CCCCN)NC(=O)[C@H](CCC(=O)O)NC(=O)[C@@H](NC(=O)[C@H](CCCCN)NC(=O)[C@H](CCCCN)NC(=O)[C@H](Cc1ccccc1)NC(=O)[C@@H](NC(=O)[C@H](CCCCN)NC(=O)[C@H](Cc1c[nH]c2ccccc12)NC(=O)[C@@H](N)CCCNC(=N)N)[C@@H](C)CC)[C@@H](C)CC)C(C)C)C(C)C)C(=O)N[C@H](C(=O)N[C@@H](CCCCN)C(=O)N[C@@H](C)C(=O)NCC(=O)N1CCC[C@H]1C(=O)N[C@@H](C)C(=O)N[C@H](C(=O)N[C@@H](C)C(=O)N[C@H](C(=O)N[C@H](C(=O)NCC(=O)N[C@@H](CCC(N)=O)C(=O)N[C@@H](C)C(=O)N[C@@H](C)C(=O)N[C@H](C(=O)N[C@H](C(=O)N[C@H](C(=O)N[C@@H](CCCCN)C(N)=O)C(C)C)C(C)C)[C@@H](C)O)C(C)C)C(C)C)C(C)C)[C@@H](C)CC
MIC (KCCM 40203, Mueller-Hinton broth; 16 h, 37 °C; growth inhibition over 99%): 8 µM

CC[C@H](C)CCCCC(=O)N[C@@H](CCN)C(=O)N[C@H](C(=O)N[C@@H](CCN)C(=O)N[C@H]1CCNC(=O)[C@H]([C@@H](C)O)NC(=O)[C@H](CCN)NC(=O)[C@H](CCN)NC(=O)[C@H](CC(C)C)NC(=O)[C@@H](CC(C)C)NC(=O)[C@H](CCN)NC1=O)[C@@H](C)O
MIC (broth microdilution; ATCC BAA-1605): 0.25 µg/mL

CC[C@H](C)[C@H](NC(=O)CNC(=O)[C@H](CC(=O)O)NC(=O)[C@H](CCCNC(=N)N)NC(=O)[C@@H](NC(=O)[C@H](CC(N)=O)NC(=O)[C@H](CCCNC(=N)N)NC(=O)CNC(=O)[C@@H](NC(=O)[C@H](CCCCN)NC(=O)[C@H](CCC(=O)O)NC(=O)[C@@H](NC(=O)[C@H](CCCCN)NC(=O)[C@H](CCCCN)NC(=O)[C@H](Cc1ccccc1)NC(=O)[C@@H](NC(=O)[C@H](CCCCN)NC(=O)[C@H](Cc1c[nH]c2ccccc12)NC(=O)[C@@H](N)CCCNC(=N)N)[C@@H](C)CC)[C@@H](C)CC)C(C)C)C(C)C)C(=O)N[C@H](C(=O)N[C@@H](CCCCN)C(=O)N[C@@H](C)C(N)=O)[C@@H](C)CC
MIC (KCCM 40203, Mueller-Hinton broth; 16 h, 37 °C; growth inhibition over 99%): 32 µM

C[C@@H](O)[C@H]1C(=O)N2C(C(=O)O)=C(S[C@@H]3CN[C@H](C(=O)N(C)C)C3)[C@H](C)[C@H]12
MIC (1188767, multidrug-resistant): > 8 µg/mL

CC[C@H](C)[C@H](NC(=O)CNC(=O)[C@H](CC(=O)O)NC(=O)[C@H](CCCNC(=N)N)NC(=O)[C@@H](NC(=O)[C@H](CC(N)=O)NC(=O)[C@H](CCCNC(=N)N)NC(=O)CNC(=O)[C@@H](NC(=O)[C@H](CCCCN)NC(=O)[C@H](CCC(=O)O)NC(=O)[C@@H](NC(=O)[C@H](CCCCN)NC(=O)[C@H](CCCCN)NC(=O)[C@H](Cc1ccccc1)NC(=O)[C@@H](NC(=O)[C@H](CCCCN)NC(=O)[C@H](Cc1c[nH]c2ccccc12)NC(=O)[C@@H](N)CCCNC(=N)N)[C@@H](C)CC)[C@@H](C)CC)C(C)C)C(C)C)C(=O)N[C@H](C(=O)N[C@@H](CCCCN)C(=O)N[C@@H](C)C(=O)NCC(=O)N1CCC[C@H]1C(=O)N[C@@H](C)C(=O)N[C@H](C(=O)N[C@@H](C)C(=O)N[C@@H](C)C(=O)N[C@@H](C)C(=O)NCC(=O)N[C@@H](CCC(N)=O)C(=O)N[C@@H](C)C(=O)N[C@@H](C)C(=O)N[C@H](C(=O)N[C@H](C(=O)N[C@H](C(=O)N[C@@H](CCCCN)C(N)=O)C(C)C)C(C)C)[C@@H](C)O)C(C)C)[C@@H](C)CC
MIC (KCCM 40203, Mueller-Hinton broth; 16 h, 37 °C; growth inhibition over 99%): 2 µM

CO/N=C(\C(=O)N[C@@H]1C(=O)N2C(C(=O)O)=C(COC(C)=O)CS[C@H]12)c1csc(N)n1
MIC (carbapenem-resistant clinical isolate): > 32 µg/mL

N=C(N)NCCC[C@H](NC(=O)[C@H](Cc1c[nH]c2ccccc12)NC(=O)[C@@H](N)CCCNC(=N)N)C(=O)N[C@@H](Cc1c[nH]c2ccccc12)C(=O)N[C@@H](Cc1ccccc1)C(=O)N[C@@H](CCC(N)=O)C(=O)N[C@@H](Cc1ccccc1)C(=O)N[C@@H](CCC(N)=O)C(=O)N[C@@H](Cc1ccccc1)C(=O)N[C@@H](CCCCN)C(N)=O
MIC (broth microdilution, optical density): 280 µM

CC[C@H](C)[C@H](NC(=O)[C@H](CC(C)C)NC(=O)[C@H](CCCNC(=N)N)NC(=O)[C@@H](N)CCCNC(=N)N)C(=O)N[C@@H](CC(C)C)C(=O)N[C@H](C(=O)N[C@@H](CCCCN)C(=O)N[C@H](C(=O)NCC(=O)N1CCC[C@H]1C(=O)N[C@H](C(=O)N[C@H](C(=O)N[C@@H](Cc1ccc(O)cc1)C(=O)N[C@@H](CCCCN)C(=O)N[C@@H](Cc1ccc(O)cc1)C(=O)N[C@@H](Cc1ccccc1)C(=O)N[C@@H](CCCCN)C(=O)N[C@@H](CCCCN)C(=O)N[C@@H](CCC(N)=O)C(=O)N[C@@H](CC(C)C)C(=O)N[C@@H](CC(C)C)C(=O)N[C@@H](CCCCN)C(=O)N[C@@H](CC(C)C)C(N)=O)[C@@H](C)CC)[C@@H](C)CC)[C@@H](C)O)[C@@H](C)O
MIC (KCCM 40203, Mueller-Hinton broth; 24 h): 2 µM

CC(=O)N[C@@H](CCCCN)C(=O)N[C@@H](CC(C)C)C(=O)N[C@@H](CC(C)C)C(=O)N[C@@H](CCCCN)C(=O)N[C@@H](CC(C)C)C(=O)N[C@@H](CC(C)C)C(=O)N[C@@H](CCCCN)C(=O)N[C@@H](CCCCN)C(=O)N1CCC[C@H]1C(=O)N[C@@H](CC(C)C)C(=O)N[C@@H](CCCCN)C(=O)N[C@@H](CC(C)C)C(N)=O
MIC (broth microdilution; ATCC 17978; 18 h, 37 °C, compound alone): > 80 µM

CC[C@H](C)[C@H](NC(=O)[C@H](CC(C)C)NC(=O)[C@H](CCCNC(=N)N)NC(=O)[C@@H](N)CCCNC(=N)N)C(=O)N[C@@H](CC(C)C)C(=O)N[C@H](C(=O)N[C@@H](CCCCN)C(=O)N[C@H](C(=O)NCC(=O)N1CCC[C@H]1C(=O)N[C@H](C(=O)N[C@H](C(=O)N[C@@H](Cc1ccc(O)cc1)C(=O)N[C@@H](CCCCN)C(=O)N[C@@H](Cc1ccc(O)cc1)C(=O)N[C@@H](Cc1ccccc1)C(=O)N[C@@H](CCCCN)C(=O)N[C@@H](CCCCN)C(=O)N[C@@H](CCC(N)=O)C(=O)N[C@@H](CC(C)C)C(=O)N[C@@H](CCCCN)C(=O)N[C@@H](CCCCN)C(=O)N[C@@H](CC(C)C)C(N)=O)[C@@H](C)CC)[C@@H](C)CC)[C@@H](C)O)[C@@H](C)O
MIC (KCCM 40203, Mueller-Hinton broth; 24 h): 2 µM

CC[C@H](C)[C@H](NC(=O)[C@H](CC(C)C)NC(=O)[C@H](CCCNC(=N)N)NC(=O)[C@H](CC(C)C)NC(=O)[C@@H](NC(=O)[C@@H](NC(=O)[C@H](CCCNC(=N)N)NC(=O)[C@@H](NC(=O)[C@@H](NC(=O)[C@H](CCCNC(=N)N)NC(=O)[C@H](CCCNC(=N)N)NC(=O)[C@H](CCCNC(=N)N)NC(=O)[C@H](CO)NC(=O)[C@@H](N)CCCNC(=N)N)[C@@H](C)CC)[C@@H](C)CC)[C@@H](C)CC)C(C)C)C(=O)N[C@@H](CCCNC(=N)N)C(=O)N[C@@H](CCCNC(=N)N)C(=O)N[C@@H](CO)C(=O)N[C@@H](C)C(=O)N[C@@H](CCCNC(=N)N)C(N)=O
MIC (broth microdilution; ATCC 17978; highest value reported): 2 µM

C[C@@H](O)[C@H]1C(=O)N2C(C(=O)O)=C(S[C@@H]3CN[C@H](C(=O)N(C)C)C3)[C@H](C)[C@H]12
MIC (broth microdilution; carbapenem-resistant clinical isolate): 32 µg/mL

CC(C)C[C@H](NC(=O)[C@@H](NC(=O)[C@H](CCCNC(=N)N)NC(=O)[C@H](CCC(N)=O)NC(=O)[C@H](Cc1ccccc1)NC(=O)[C@H](Cc1ccc(O)cc1)NC(=O)[C@H](CC(N)=O)NC(=O)[C@H](Cc1c[nH]c2ccccc12)NC(=O)[C@@H](NC(=O)[C@H](CCCNC(=N)N)NC(=O)[C@H](CCCCN)NC(=O)[C@@H](N)Cc1ccccc1)C(C)C)C(C)C)C(=O)N[C@H](C(=O)N[C@@H](CCCCN)C(=O)N[C@@H](CCCCN)C(N)=O)C(C)C
MIC (broth dilution; ATCC 19606): > 100 µM

CC[C@H](C)[C@H](NC(=O)[C@H](CC(C)C)NC(=O)[C@H](CCCCN)NC(=O)[C@@H](NC(=O)[C@H](C)NC(=O)[C@H](CCC(=O)O)NC(=O)[C@H](Cc1c[nH]cn1)NC(=O)[C@@H](NC(=O)[C@H](CCCCN)NC(=O)[C@H](CCC(N)=O)NC(=O)[C@H](Cc1ccccc1)NC(=O)[C@@H](NC(=O)[C@H](CCCCN)NC(=O)[C@@H](N)CCCCN)C(C)C)[C@@H](C)CC)[C@@H](C)CC)C(N)=O
MIC (CLSI broth microdilution; ATCC 19606; 18 h, 37 °C): 64 µM

CC[C@H](C)[C@H](NC(=O)CNC(=O)[C@H](CC(=O)O)NC(=O)[C@H](CCCNC(=N)N)NC(=O)[C@@H](NC(=O)[C@H](CC(N)=O)NC(=O)[C@H](CCCNC(=N)N)NC(=O)CNC(=O)[C@@H](NC(=O)[C@H](CCC(=O)O)NC(=O)[C@H](CCC(=O)O)NC(=O)[C@@H](NC(=O)[C@H](CCCCN)NC(=O)[C@H](CCCCN)NC(=O)[C@H](Cc1ccccc1)NC(=O)[C@@H](NC(=O)[C@H](CCCCN)NC(=O)[C@H](Cc1c[nH]c2ccccc12)NC(=O)[C@@H](N)CCCNC(=N)N)[C@@H](C)CC)[C@@H](C)CC)C(C)C)C(C)C)C(=O)N[C@H](C(=O)N[C@@H](CCCCN)C(=O)N[C@@H](C)C(=O)NCC(=O)N1CCC[C@H]1C(=O)N[C@@H](C)C(=O)N[C@H](C(=O)N[C@@H](C)C(=O)N[C@H](C(=O)N[C@H](C(=O)NCC(=O)N[C@@H](CCC(N)=O)C(=O)N[C@@H](C)C(=O)N[C@@H](C)C(=O)N[C@H](C(=O)N[C@H](C(=O)N[C@H](C(=O)N[C@@H](CCCCN)C(N)=O)C(C)C)C(C)C)[C@@H](C)O)C(C)C)C(C)C)C(C)C)[C@@H](C)CC
MIC (KCCM 40203, Mueller-Hinton broth; 16 h, 37 °C; growth inhibition over 99%): 4 µM

For quick reference, copied from above:
CO/N=C(\C(=O)N[C@@H]1C(=O)N2C(C(=O)O)=C(COC(C)=O)CS[C@H]12)c1csc(N)n1
MIC (carbapenem-resistant clinical isolate): > 32 µg/mL

N=C(N)NCCC[C@H](NC(=O)[C@H](Cc1c[nH]c2ccccc12)NC(=O)[C@@H](N)CCCNC(=N)N)C(=O)N[C@@H](Cc1c[nH]c2ccccc12)C(=O)N[C@@H](Cc1ccccc1)C(=O)N[C@@H](CCC(N)=O)C(=O)N[C@@H](Cc1ccccc1)C(=O)N[C@@H](CCC(N)=O)C(=O)N[C@@H](Cc1ccccc1)C(=O)N[C@@H](CCCCN)C(N)=O
MIC (broth microdilution, optical density): 280 µM
